Measured values pooled from the literature.
Every numbered part comes from another study and shows a few of its results, in no order.

Set 1 — Substance: deucravacitinib; host: human; setting: multiple dose
For 6 mg twice daily: acne incidence read 11.1%.
For 2 mg twice daily: acne incidence read 0%.
12 mg once daily — acne incidence: 0%.

Single results of other studies
`maraviroc` gave an AUC(0-12h) of 3440 ng·h/mL (black CYP3A5 poor metabolizers, plasma; 300 mg twice daily).
Under “participants with adverse events”, `semaglutide` is recorded as 4.2% (measured: drug interrupted; human, safety analysis set; concentration not given, 32 weeks, run-in).
`chicoric acid`: “Papp basolateral to apical” “no effect” (IPEC-J2 monolayer; together with: monensin 50 µM; baseline: without inhibitor).

Excerpt of the above (set 1):
For 6 mg twice daily: acne incidence read 11.1%.
